Measurements pooled from the literature.
Compare with care: the assays were run in different laboratories. “And” joins repeats or separate records; there may be more than shown.
Cell line: SK-MEL-28

For `Cc1cc(=O)[nH]c(=O)n1Cc1cn(-c2c3ccccc3nc3ccccc23)nn1`, the growth percentage was 75.6% (NCI60 single-dose screen; 10 µM).
With `[Cl-].[Cl-].[Ru+2].c1cnc2c(c1)ccc1cccnc12.c1cnc2c(c1)ccc1cccnc12.c1csc(-c2ccc(-c3ccc(-c4nc5c6cccnc6c6ncccc6c5[nH]4)s3)s2)c1` the EC50 was < 100 µM (resazurin viability; dark, hypoxia 1% O2).
`CCCCN1CCN(c2ccc3[nH]c(-c4ccc5[nH]c(-c6ccc(OCC)c(OCC)c6)nc5c4)nc3c2)CC1` gave a growth percent of 45.8% (SRB; 10 µM, 48 h).
`[Cl-].[Cl-].[Ru+2].c1cnc2c(c1)ccc1cccnc12.c1cnc2c(c1)ccc1cccnc12.c1csc(-c2ccc(-c3ccc(-c4ccc(-c5nc6c7cccnc7c7ncccc7c6[nH]5)s4)s3)s2)c1` has an EC50 of 0.00074 µM (normoxia, with: visible light 100 J/cm2).
`Cc1cc(=O)[nH]c(=O)n1Cc1cn(-c2cc3ccccc3oc2=O)nn1` has a growth percentage of 110% (NCI60 single-dose screen; 10 µM).
`O=C(Nc1nnc2[nH]c(=S)[nH]c(-c3ccc(Cl)cc3)c1-2)c1ccccc1` gave a cell growth of 104% (SRB; 10 µM, NCI60 single-dose screen; relative to: untreated).
`CCCCN1CCN(c2ccc3nc(-c4ccc5nc(-c6cc(OC)ccc6OC)[nH]c5c4)[nH]c3c2)CC1` gave a growth percent of 104% (SRB; 10 µM, 48 h).
`C#C[C@@]1(O)[C@@H](CO)O[C@@H](n2cc(Br)c3c(N)ncnc32)[C@@H]1O` gave a TGI of 48.1 µM and 30.2 µM (SRB; NCI-60 screen).
For `CCCN1CCN(c2ccc3[nH]c(-c4ccc5[nH]c(-c6cc(OC)c(OC)c(OC)c6)nc5c4)nc3c2)CC1`, the growth percent was 57.9% (SRB; 10 µM, 48 h).
With `O=C(/C=C/C=C/C=C/C1CCCCC1)NC1=C[C@@](O)(/C=C/C=C/C=C/C(=O)NC2=C(O)CCC2=O)[C@@H]2O[C@@H]2C1=O` the GI50 was 20.7 µM (cell growth, CellTiter-Glo; 78 h).
With `Cc1cc(=O)[nH]n1-c1nc(-c2ccc(Cl)cc2)c2c(NC(=O)c3ccccc3)nnc-2[nH]1` the cell growth was 92.6% (SRB; 10 µM, NCI60 single-dose screen; relative to: untreated).
With `CCCCN1CCN(c2ccc3[nH]c(-c4ccc5[nH]c(-c6ccc(C(F)(F)F)cc6)nc5c4)nc3c2)CC1` the growth percent was -88.3% (SRB; 10 µM, 48 h).
`CSc1nc(-c2ccc(Cl)cc2)c2c(NC(=O)c3ccccc3)nnc-2[nH]1` gave a cell growth of 106% (SRB; 10 µM, NCI60 single-dose screen; relative to: untreated).
`CCCCN1CCN(c2ccc3[nH]c(-c4ccc5[nH]c(-c6ccc(OCC)cc6)nc5c4)nc3c2)CC1` gave a growth percent of 61.6% (SRB; 10 µM, 48 h).
`C#C[C@@]1(O)[C@@H](CO)O[C@@H](n2cc(F)c3c(N)ncnc32)[C@@H]1O` has a TGI of > 100 µM (SRB; NCI-60 screen).
`[Cl-].[Cl-].[Ru+2].c1cnc2c(c1)ccc1cccnc12.c1cnc2c(c1)ccc1cccnc12.c1csc(-c2nc3c4cccnc4c4ncccc4c3[nH]2)c1` gave a phototherapeutic index of 23 (normoxia, with: green light 523 nm, 100 J/cm2).
For `Cc1cc(C)n(-c2nc(-c3ccc(Cl)cc3)c3c(NC(=O)c4ccccc4)nnc-3[nH]2)n1`, the cell growth was 104% (SRB; 10 µM, NCI60 single-dose screen; relative to: untreated).
`COc1cnc2cccc(N3CCc4c(cc(Cn5ccnc5C)cc4-c4cn(C)nc4C(F)(F)F)C3=O)c2c1` gave an EC50 of 0.13 µM (cell growth, inhibitor; 120 h).
With `O=c1ccn(Cc2cn(-c3cc4ccccc4oc3=O)nn2)c(=O)[nH]1` the growth percentage was 111% (NCI60 single-dose screen; 10 µM).
`Cn1cncc1C1=CN(c2ncnc3[nH]cnc23)CCS1` gave a GI50 of 25.1 µM (melanoma cell line).
`O=C(Nc1nnc2n3c(=S)[nH][nH]c3nc(-c3ccc(Cl)cc3)c1-2)c1ccccc1` gave a cell growth of 117% (SRB; 10 µM, NCI60 single-dose screen; relative to: untreated).
With `[Cl][Ru][Cl].c1cnc2c(c1)ccc1cccnc12.c1cnc2c(c1)ccc1cccnc12.c1cnc2c(c1)ccc1cccnc12` the phototherapeutic index was > 10 (normoxia, with: visible light 100 J/cm2; relative to: dark EC50 over light EC50).
With `CCOc1ccc(-c2nc3cc(-c4nc5cc(N6CCN(C)CC6)ccc5[nH]4)ccc3[nH]2)cc1OCC` the growth percent was -27.2% (SRB; 10 µM, 48 h).
`O=c1ccn(Cc2cn(-c3c4ccccc4nc4ccccc34)nn2)c(=O)[nH]1` has a growth percentage of 102% (NCI60 single-dose screen; 10 µM).
The TGI of `C#C[C@@]1(O)[C@@H](CO)O[C@@H](n2cc(Cl)c3c(N)ncnc32)[C@@H]1O` is reported as 57.1 µM and 89.4 µM (SRB; NCI-60 screen).

For quick reference, copied from above:
With `[Cl-].[Cl-].[Ru+2].c1cnc2c(c1)ccc1cccnc12.c1cnc2c(c1)ccc1cccnc12.c1csc(-c2ccc(-c3ccc(-c4nc5c6cccnc6c6ncccc6c5[nH]4)s3)s2)c1` the EC50 was < 100 µM (resazurin viability; dark, hypoxia 1% O2).
`CCCCN1CCN(c2ccc3[nH]c(-c4ccc5[nH]c(-c6ccc(OCC)c(OCC)c6)nc5c4)nc3c2)CC1` gave a growth percent of 45.8% (SRB; 10 µM, 48 h).
`[Cl-].[Cl-].[Ru+2].c1cnc2c(c1)ccc1cccnc12.c1cnc2c(c1)ccc1cccnc12.c1csc(-c2ccc(-c3ccc(-c4ccc(-c5nc6c7cccnc7c7ncccc7c6[nH]5)s4)s3)s2)c1` has an EC50 of 0.00074 µM (normoxia, with: visible light 100 J/cm2).
